Results gathered from unrelated publications.
Parts stem from different laboratories: compare values within a part only.
Chain of UniProt P04629 (whole entry, looked up): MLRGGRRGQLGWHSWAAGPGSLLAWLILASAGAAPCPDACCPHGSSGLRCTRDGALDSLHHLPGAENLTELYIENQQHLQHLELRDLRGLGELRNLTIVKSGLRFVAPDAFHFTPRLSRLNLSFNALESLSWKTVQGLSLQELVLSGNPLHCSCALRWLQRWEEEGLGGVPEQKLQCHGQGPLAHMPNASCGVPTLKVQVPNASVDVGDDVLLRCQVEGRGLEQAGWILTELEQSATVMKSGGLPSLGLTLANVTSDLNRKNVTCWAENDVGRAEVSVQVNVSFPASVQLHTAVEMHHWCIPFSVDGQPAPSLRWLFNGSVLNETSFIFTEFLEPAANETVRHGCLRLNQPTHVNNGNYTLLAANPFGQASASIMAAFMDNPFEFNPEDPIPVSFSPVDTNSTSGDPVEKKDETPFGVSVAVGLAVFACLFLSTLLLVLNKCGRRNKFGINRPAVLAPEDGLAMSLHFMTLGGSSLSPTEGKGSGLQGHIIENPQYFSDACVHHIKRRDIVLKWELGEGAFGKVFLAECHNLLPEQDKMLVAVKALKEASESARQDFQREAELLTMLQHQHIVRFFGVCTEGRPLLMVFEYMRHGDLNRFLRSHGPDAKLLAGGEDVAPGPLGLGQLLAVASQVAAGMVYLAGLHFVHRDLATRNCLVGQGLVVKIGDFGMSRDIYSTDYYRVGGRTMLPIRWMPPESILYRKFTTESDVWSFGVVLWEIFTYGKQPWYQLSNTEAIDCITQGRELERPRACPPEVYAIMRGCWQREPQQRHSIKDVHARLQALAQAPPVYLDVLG
Chain of UniProt P05771 (whole entry, looked up): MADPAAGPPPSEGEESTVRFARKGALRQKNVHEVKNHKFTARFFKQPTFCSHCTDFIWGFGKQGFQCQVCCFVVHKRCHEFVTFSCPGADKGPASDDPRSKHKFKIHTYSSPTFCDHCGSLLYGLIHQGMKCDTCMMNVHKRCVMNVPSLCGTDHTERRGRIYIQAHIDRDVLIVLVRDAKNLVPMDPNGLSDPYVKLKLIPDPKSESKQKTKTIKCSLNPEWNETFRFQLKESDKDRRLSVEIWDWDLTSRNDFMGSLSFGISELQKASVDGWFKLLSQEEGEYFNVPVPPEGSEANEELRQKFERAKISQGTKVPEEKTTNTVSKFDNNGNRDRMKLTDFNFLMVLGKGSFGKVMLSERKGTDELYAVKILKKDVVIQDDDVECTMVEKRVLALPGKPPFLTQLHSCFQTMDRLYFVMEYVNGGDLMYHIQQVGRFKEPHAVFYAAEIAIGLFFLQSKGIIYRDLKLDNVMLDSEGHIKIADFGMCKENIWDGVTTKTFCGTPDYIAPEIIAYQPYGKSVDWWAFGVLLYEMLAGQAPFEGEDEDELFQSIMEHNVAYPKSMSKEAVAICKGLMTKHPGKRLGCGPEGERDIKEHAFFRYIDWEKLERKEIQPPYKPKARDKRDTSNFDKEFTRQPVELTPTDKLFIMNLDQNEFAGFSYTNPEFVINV
Chain of UniProt O00506 (whole entry, looked up): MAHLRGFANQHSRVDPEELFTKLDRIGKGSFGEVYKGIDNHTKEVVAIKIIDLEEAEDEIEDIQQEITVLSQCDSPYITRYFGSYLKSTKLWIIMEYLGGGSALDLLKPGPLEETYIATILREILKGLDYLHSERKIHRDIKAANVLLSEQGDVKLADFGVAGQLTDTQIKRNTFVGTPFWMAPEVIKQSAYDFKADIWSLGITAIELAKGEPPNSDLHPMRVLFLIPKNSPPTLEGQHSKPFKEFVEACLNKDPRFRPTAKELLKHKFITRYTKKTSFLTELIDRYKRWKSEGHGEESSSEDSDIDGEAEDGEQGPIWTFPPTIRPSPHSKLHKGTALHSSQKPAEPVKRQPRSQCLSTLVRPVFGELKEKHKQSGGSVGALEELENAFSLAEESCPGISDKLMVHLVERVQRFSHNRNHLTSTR
Chain of UniProt Q15831 (whole entry, looked up): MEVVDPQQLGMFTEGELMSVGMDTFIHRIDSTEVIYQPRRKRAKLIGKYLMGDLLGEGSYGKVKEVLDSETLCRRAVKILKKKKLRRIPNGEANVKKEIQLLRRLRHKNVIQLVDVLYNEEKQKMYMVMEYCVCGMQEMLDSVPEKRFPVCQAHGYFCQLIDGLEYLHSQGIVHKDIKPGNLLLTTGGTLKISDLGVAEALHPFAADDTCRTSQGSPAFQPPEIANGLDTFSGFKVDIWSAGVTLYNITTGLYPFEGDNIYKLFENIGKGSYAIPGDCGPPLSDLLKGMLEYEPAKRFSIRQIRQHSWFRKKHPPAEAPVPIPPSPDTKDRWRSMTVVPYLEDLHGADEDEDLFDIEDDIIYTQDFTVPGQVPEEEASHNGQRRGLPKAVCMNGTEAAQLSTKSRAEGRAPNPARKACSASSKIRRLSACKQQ
Chain of UniProt Q99759 (whole entry, looked up): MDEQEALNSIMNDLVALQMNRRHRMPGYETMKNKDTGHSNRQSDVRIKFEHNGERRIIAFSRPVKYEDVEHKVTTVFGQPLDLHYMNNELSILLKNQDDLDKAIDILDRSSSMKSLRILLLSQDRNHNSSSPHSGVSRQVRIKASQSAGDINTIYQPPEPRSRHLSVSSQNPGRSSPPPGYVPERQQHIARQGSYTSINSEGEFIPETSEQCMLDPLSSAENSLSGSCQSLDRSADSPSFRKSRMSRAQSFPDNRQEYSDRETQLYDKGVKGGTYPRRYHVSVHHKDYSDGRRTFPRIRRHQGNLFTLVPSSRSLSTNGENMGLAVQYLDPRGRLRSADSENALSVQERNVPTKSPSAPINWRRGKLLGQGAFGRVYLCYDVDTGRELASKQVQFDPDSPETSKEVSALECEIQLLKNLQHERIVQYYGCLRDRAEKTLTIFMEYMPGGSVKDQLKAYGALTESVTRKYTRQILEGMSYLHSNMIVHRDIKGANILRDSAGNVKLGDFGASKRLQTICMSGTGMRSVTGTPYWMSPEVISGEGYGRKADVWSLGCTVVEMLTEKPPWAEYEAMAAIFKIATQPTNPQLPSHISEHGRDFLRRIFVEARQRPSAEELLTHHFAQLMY
Chain of UniProt P07948 (whole entry, looked up): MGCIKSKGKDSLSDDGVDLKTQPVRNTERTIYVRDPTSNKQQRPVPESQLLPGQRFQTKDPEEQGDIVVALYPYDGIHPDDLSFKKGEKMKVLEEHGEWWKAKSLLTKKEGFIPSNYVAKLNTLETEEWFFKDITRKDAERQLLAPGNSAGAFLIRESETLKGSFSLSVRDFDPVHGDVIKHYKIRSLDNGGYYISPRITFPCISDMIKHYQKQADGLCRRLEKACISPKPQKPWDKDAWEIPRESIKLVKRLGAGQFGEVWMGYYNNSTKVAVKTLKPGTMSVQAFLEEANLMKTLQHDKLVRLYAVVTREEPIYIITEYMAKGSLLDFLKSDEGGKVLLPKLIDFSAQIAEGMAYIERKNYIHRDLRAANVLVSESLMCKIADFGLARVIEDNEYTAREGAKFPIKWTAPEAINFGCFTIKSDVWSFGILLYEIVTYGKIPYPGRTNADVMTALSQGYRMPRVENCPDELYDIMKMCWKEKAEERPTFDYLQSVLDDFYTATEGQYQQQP
Chain of UniProt Q9UIK4 (whole entry, looked up): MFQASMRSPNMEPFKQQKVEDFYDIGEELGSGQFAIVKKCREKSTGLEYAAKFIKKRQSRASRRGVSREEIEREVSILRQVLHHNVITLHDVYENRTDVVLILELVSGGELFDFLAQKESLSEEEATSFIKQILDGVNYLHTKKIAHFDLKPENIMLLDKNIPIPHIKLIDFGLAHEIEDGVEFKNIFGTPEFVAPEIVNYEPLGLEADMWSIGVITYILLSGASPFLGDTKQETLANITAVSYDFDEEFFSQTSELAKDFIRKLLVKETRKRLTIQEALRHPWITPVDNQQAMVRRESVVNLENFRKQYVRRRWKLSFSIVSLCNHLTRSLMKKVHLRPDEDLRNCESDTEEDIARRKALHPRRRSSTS

Set 1
Target: Myc proto-oncogene protein, bHLH-zipper, MAX partner unstated (MYC, Homo sapiens, UniProt P01106, residues 368-449)
Chain of UniProt P01106 (368-449, looked up): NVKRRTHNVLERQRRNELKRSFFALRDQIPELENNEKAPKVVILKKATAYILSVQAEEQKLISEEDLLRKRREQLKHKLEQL
Method: protein-binding microarray
Form: double-stranded DNA, one strand shown
Matrix: in vitro
Tested at: not given
Setting: k-mer, scored over probes, only values ≥0.25
Reading: higher = stronger binding
The E-score of `CGAGGGGC` is reported as 0.278.
`CACGTGCC` has an E-score of 0.493.
With `CACGATGA` the E-score was 0.316.
For `ATCATGCG`, the E-score was 0.34.
With `CGTGCTCA` the E-score was 0.424.
`TCGTGGAA` has an E-score of 0.307.
The E-score of `CAGCGTGG` is reported as 0.423.
`AATCACGC` has an E-score of 0.308.

Set 2
SMILES: N#CC(=C(N)Sc1ccc(N)cc1)c1ccccc1C(F)(F)F
Read-out: enzyme activity
Mode: inhibitor
Tested at: 0.5 µM
Relative to: control
It gave 98.5% for remaining activity (Tyrosine-protein kinase Lyn, isoform B (LYN, Homo sapiens, UniProt P07948)).
For Protein kinase C beta type, isoform beta-I (PRKCB, Homo sapiens, UniProt P05771): remaining activity read 93.1%.
For cGMP-dependent protein kinase 1, isoform beta (PRKG1, Homo sapiens, UniProt Q13976): remaining activity read 100%.
For PRKCA (Homo sapiens, UniProt P17252): remaining activity read 100%.
DAPK2 (Homo sapiens, UniProt Q9UIK4) — remaining activity: 112%.
The remaining activity was 102% (STK11 (Homo sapiens, UniProt Q15831)).
IKBKE (Homo sapiens, UniProt Q14164) — remaining activity: 102%.
The remaining activity was 97.7% (MAP3K3 (Homo sapiens, UniProt Q99759)).
CAMK2D (Homo sapiens, UniProt Q13557) — remaining activity: 93.4%.
Cyclin-dependent kinase 4, with cyclin D1 (CDK4, Homo sapiens, UniProt P11802) — remaining activity: 106%.

Set 3
Compound: Cc1nc(C2CCN(C(=O)c3ccc(OC(F)(F)F)cc3N)CC2)c2ncc(N3CCN(C)CC3)cc2n1
Method: competition with immobilised ligand
Tested at: 1 µM
For STK25 (Homo sapiens, UniProt O00506); cell-free assay: remaining binding read 100%.
It gave 79% for remaining binding (PIK3CG (Homo sapiens, UniProt P48736); cell-free assay).
For PIM3 (Homo sapiens, UniProt Q86V86); cell-free assay: remaining binding read 100%.
It gave 81% for remaining binding (PIK3CA (Homo sapiens, UniProt P42336); cell-free assay).
It gave 100% for remaining binding (AXL (Homo sapiens, UniProt P30530); cell-free assay).
ROS1 (Homo sapiens, UniProt P08922); cell-free assay — remaining binding: 92%.
It gave 100% for remaining binding (PHKG1 (Homo sapiens, UniProt Q16816); cell-free assay).
The remaining binding was 100% (MAST1 (Homo sapiens, UniProt Q9Y2H9); cell-free assay).
It gave 85% for remaining binding (NTRK1 (Homo sapiens, UniProt P04629); cell-free assay).
WNK2 (Homo sapiens, UniProt Q9Y3S1); cell-free assay — remaining binding: 100%.
For MAP3K13 (Homo sapiens, UniProt O43283); cell-free assay: remaining binding read 100%.
The remaining binding was 100% (Tyrosine-protein kinase ABL1, phosphorylated (ABL1, Homo sapiens, UniProt P00519, E255K); binding).
For Tyrosine-protein kinase ABL1, non-phosphorylated (ABL1, Homo sapiens, UniProt P00519, Q252H); cell-free assay: remaining binding read 81%.

Set 4
Target: Eukaryotic initiation factor 4A-I (EIF4A1, Homo sapiens, UniProt P60842, residues 1-406, full length assumed)
Chain of UniProt P60842 (whole entry, looked up): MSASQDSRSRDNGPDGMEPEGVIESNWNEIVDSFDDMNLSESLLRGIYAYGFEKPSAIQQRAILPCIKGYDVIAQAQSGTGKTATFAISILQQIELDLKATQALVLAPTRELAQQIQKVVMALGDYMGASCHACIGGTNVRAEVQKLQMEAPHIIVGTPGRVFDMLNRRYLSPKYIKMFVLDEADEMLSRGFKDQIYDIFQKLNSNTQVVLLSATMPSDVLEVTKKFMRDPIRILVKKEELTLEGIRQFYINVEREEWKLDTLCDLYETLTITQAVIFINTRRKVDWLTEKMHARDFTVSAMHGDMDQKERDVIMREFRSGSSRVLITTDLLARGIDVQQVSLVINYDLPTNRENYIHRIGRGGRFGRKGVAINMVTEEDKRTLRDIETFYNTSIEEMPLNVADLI
Method: RNA Bind-n-Seq
Form: RNA
Matrix: in vitro
Tested at: 90 pmol
Setting: 4-mer, random 30-nt RNA, single round
Added: 3 µM DMDA-PatA, 2 mM ADP, 2 mM phosphate
Relative to: input library
Reading: higher = stronger binding
With `CACU` the 4-mer enrichment was 0.569 fold.
With `AGCU` the 4-mer enrichment was 0.577 fold.
`GAUG` gave a 4-mer enrichment of 1.05 fold.
With `CAGC` the 4-mer enrichment was 0.916 fold.
`GGCC` has a 4-mer enrichment of 0.59 fold.
The 4-mer enrichment of `CAAA` is reported as 0.955 fold.
`GGGU` gave a 4-mer enrichment of 1.33 fold.
`GUUA` has a 4-mer enrichment of 1.11 fold.

A few entries again (set 3):
It gave 81% for remaining binding (PIK3CA (Homo sapiens, UniProt P42336); cell-free assay).
It gave 100% for remaining binding (AXL (Homo sapiens, UniProt P30530); cell-free assay).
ROS1 (Homo sapiens, UniProt P08922); cell-free assay — remaining binding: 92%.
It gave 100% for remaining binding (PHKG1 (Homo sapiens, UniProt Q16816); cell-free assay).
The remaining binding was 100% (MAST1 (Homo sapiens, UniProt Q9Y2H9); cell-free assay).
It gave 85% for remaining binding (NTRK1 (Homo sapiens, UniProt P04629); cell-free assay).
